{"data": "Assay results pooled from the literature", "note": "Lines come from different studies, so protocols differ. “And” joins repeats or separate records; there may be more than shown. ± gives the spread as reported.", "sequence of UniProt P45880 (whole entry, looked up)": "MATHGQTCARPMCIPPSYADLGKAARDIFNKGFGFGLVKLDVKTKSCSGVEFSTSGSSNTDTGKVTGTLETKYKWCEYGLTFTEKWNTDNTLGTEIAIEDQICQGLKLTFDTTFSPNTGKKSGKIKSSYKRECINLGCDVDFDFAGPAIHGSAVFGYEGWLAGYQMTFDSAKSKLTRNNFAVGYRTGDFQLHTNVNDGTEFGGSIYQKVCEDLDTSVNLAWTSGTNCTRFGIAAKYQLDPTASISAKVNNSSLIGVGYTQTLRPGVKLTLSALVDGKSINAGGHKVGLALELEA"}
{"Structure (SMILES)": "N#CC(=Cc1ccccc1)C(N)=O", "setting": "pH 7.4", "quantity": "β-elimination rate constant", "value": "> 0.69 min⁻¹"}
{"Structure (SMILES)": "CN(C)CCCN1c2ccccc2Sc2ccccc21", "target or system": "Plasmodium falciparum", "system": "W2", "quantity": "IC50", "value": "1000 nM"}
{"Structure (SMILES)": "O=S(=O)(NCCNC/C=C/c1ccc(Br)cc1)c1cccc2cnccc12", "system": "mouse zygotes", "setting": "20 µM, 96 h post-hCG", "quantity": "embryos reaching 4-cell", "value": "5.26%"}
{"Structure (SMILES)": "C[C@@H](NC(=O)c1ccc(C#Cc2cccc(F)c2)cn1)C(C)(C)O", "system": "rat hippocampal CA3 slices", "setting": "10 µM, 10 min, spontaneous epileptiform activity", "how to read": "baseline: baseline", "quantity": "population spike amplitude", "value": "106 ± 3.7%"}
{"Structure (SMILES)": "C[C@H]1O[C@@H](O[C@H]2CC[C@@]3(C)[C@@H](CC[C@]4(C)[C@@H]3C=C[C@]35OC[C@@]6(CCC(C)(C)C[C@H]63)[C@@H](O)C[C@]54C)[C@]2(C)CO)[C@H](O)[C@@H](O[C@@H]2O[C@H](CO)[C@@H](O)[C@H](O)[C@H]2O)[C@H]1O", "system": "Mus musculus, pair-fed, AAV8-TBG-SIRT1 shRNA hepatic SIRT1 knockdown, plasma", "setting": "oral, high dose, 5 h", "quantity": "γ-GT activity", "value": "32.5 U/L and 21.9 U/L and 29.8 U/L and 27.9 U/L and 28.3 U/L and 29.3 U/L"}
{"Structure (SMILES)": "CC[C@H](C)[C@@H]1NC(=O)[C@@H]2CCCN2C(=O)[C@H](CC(C)C)NC(=O)[C@H](CC(C)C)NC(=O)CNC(=O)[C@@H](NC(=O)[C@@H](NC(=O)[C@H](CC(=O)O)NC(=O)CNC(=O)[C@@H](NC(=O)[C@H](C)NC(=O)CNC(=O)[C@H](CCCCN)NC(=O)[C@H](CC(C)C)NC(=O)[C@H](CC(C)C)NC(=O)[C@H](CCCCN)NC(=O)CNC(=O)[C@@H](NC(=O)[C@@H](N)CC(C)C)C(C)C)C(C)C)C(C)C)CSSC[C@@H](C(=O)O)NC1=O", "test": "RNA-seq, refers to: Bcl2", "system": "mouse, traumatic brain injury model, frontal cortex and hippocampus", "setting": "dose not given", "how to read": "baseline: TBI alone", "quantity": "log2 fold change", "value": -0.0928}
{"Structure (SMILES)": "OC(c1cc(C(F)(F)F)nc2c(C(F)(F)F)cccc12)C1CCCCN1 (stereo not shown)", "target or system": "Plasmodium falciparum", "system": "3D7", "quantity": "IC50", "value": "15 nM"}
{"Structure (SMILES)": "C[C@]1(CO)Cc2ncn(-c3ccc(C#N)c(Cl)c3)c2C(=O)O1", "system": "human", "setting": "40 mg single dose", "quantity": "urinary sodium excretion Ae(0-24h)", "value": "298 mmol"}
{"Structure (SMILES)": "CS(=O)(=O)c1ccc(-c2nnc(/C=C/c3nnc(-c4ccc(C#N)cc4)o3)n2-c2ccccc2Cl)nc1", "test": "RNA-seq GSEA, refers to: HALLMARK_NOTCH_SIGNALING", "system": "organoids, small intestinal, Apc Q1405X, mouse", "setting": "dose not given, wild-type organoids", "how to read": "baseline: DMSO, direction not given", "quantity": "normalized enrichment score", "value": -1.26}
{"Structure (SMILES)": "CC1=C(O)C(=O)C=C2C1=CC=C1[C@@]2(C)CC[C@@]2(C)[C@@H]3C[C@](C)(C(=O)O)CC[C@]3(C)CC[C@]12C", "test": "video-EEG", "system": "Sprague-Dawley rat pups, multiple-hit infantile spasms model", "setting": "i.p., 4 mg/kg, 4 to 5 h, CELA-4 arm", "how to read": "baseline: vehicle", "quantity": "spasm frequency", "value": "decreased"}
{"Structure (SMILES)": "C[C@H]1CN(c2n[nH]c3nc(N[C@H]4CC[C@H](NS(=O)(=O)CCC(F)(F)F)CC4)ncc23)CCO1", "target or system": "Non-selective voltage-gated ion channel VDAC2 (Homo sapiens, UniProt P45880)", "test": "Kinobeads competition, refers to: VDAC2", "setting": "0.032 µM, unit not given", "how to read": "baseline: vehicle", "quantity": "remaining binding", "value": 1.02}
{"Structure (SMILES)": "Cn1ncc(-c2nc(N[C@H]3CC[C@H](N)CC3)ncc2Cl)c1CC1CC1", "test": "phase I clinical trial", "system": "R/R AML or high-risk MDS patients", "setting": "dose not given", "quantity": "median duration of response", "value": "1.9 months"}
{"Structure (SMILES)": "O=c1c(O)c(-c2ccc(O[C@@H]3O[C@H](CO)[C@@H](O)[C@H](O)[C@H]3O)c(O)c2)oc2cc(O)cc(O)c12", "quantity": "ABTS radical scavenging", "value": "1.21 trolox equivalents"}
{"note": "Some of these lines once more:"}
{"Structure (SMILES)": "CN(C)CCCN1c2ccccc2Sc2ccccc21", "target or system": "Plasmodium falciparum", "system": "W2", "quantity": "IC50", "value": "1000 nM"}
